Assay results pooled from the literature.
Each numbered part is a random draw from the data of one study; scales do not carry over between parts.
Chain of UniProt O00141 (whole entry, looked up): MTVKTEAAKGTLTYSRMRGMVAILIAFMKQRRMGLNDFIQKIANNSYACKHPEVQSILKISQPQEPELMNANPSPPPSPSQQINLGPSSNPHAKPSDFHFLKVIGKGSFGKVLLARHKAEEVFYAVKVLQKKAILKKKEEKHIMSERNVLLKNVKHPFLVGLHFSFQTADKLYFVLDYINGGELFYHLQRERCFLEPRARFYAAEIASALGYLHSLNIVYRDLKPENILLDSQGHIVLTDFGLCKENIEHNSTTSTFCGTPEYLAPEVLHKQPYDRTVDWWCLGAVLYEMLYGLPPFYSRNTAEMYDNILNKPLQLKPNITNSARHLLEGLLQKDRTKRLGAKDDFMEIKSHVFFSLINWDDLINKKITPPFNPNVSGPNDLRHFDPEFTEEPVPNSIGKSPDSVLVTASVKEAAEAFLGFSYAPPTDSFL
Chain of UniProt P42338 (whole entry, looked up): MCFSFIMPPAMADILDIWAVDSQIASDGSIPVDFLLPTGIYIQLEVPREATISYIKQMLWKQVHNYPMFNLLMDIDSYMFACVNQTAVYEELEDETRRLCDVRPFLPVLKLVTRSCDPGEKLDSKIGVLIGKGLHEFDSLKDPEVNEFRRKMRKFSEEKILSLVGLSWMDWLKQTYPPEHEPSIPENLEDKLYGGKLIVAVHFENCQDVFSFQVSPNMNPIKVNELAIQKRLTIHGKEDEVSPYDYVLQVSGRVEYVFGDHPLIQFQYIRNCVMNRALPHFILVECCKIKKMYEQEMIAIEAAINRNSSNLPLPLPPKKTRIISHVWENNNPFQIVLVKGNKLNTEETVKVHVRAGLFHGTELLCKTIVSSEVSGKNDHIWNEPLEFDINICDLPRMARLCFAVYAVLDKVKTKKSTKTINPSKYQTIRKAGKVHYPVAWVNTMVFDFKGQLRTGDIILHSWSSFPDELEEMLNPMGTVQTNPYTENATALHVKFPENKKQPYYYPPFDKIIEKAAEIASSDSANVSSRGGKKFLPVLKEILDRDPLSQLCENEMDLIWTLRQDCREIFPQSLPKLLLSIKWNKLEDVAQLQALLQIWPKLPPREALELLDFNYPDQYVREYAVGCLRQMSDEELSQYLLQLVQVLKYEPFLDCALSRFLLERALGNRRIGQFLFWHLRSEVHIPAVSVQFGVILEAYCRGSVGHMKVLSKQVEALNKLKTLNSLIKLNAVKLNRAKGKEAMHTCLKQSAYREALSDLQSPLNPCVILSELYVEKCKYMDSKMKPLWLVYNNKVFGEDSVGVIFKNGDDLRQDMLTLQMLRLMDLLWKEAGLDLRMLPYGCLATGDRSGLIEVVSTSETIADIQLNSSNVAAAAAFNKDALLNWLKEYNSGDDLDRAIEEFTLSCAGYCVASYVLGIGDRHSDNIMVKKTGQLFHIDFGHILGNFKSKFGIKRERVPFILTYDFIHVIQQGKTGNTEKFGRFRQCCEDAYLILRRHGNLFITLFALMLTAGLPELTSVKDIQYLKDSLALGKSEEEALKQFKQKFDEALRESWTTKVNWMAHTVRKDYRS
Chain of UniProt P15056 (whole entry, looked up): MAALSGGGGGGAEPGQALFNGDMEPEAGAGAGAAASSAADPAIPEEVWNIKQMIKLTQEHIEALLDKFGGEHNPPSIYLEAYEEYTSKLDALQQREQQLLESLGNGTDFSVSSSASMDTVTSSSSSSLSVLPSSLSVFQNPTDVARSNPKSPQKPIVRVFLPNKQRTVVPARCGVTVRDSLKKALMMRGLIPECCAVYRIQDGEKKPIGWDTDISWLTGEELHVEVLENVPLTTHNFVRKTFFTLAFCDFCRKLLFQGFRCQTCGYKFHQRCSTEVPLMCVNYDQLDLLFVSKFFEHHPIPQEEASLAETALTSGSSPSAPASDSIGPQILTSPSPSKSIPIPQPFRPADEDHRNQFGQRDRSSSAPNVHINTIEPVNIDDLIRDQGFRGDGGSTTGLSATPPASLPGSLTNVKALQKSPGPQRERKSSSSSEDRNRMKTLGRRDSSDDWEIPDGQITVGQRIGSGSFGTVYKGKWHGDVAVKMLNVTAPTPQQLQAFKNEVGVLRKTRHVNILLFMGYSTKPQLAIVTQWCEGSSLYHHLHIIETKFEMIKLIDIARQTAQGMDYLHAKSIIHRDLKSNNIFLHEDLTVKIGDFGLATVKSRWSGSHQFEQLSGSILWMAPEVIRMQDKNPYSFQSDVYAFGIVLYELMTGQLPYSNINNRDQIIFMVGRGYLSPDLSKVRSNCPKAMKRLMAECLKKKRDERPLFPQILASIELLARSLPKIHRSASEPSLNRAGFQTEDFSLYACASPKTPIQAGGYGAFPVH
Chain of UniProt P35916 (whole entry, looked up): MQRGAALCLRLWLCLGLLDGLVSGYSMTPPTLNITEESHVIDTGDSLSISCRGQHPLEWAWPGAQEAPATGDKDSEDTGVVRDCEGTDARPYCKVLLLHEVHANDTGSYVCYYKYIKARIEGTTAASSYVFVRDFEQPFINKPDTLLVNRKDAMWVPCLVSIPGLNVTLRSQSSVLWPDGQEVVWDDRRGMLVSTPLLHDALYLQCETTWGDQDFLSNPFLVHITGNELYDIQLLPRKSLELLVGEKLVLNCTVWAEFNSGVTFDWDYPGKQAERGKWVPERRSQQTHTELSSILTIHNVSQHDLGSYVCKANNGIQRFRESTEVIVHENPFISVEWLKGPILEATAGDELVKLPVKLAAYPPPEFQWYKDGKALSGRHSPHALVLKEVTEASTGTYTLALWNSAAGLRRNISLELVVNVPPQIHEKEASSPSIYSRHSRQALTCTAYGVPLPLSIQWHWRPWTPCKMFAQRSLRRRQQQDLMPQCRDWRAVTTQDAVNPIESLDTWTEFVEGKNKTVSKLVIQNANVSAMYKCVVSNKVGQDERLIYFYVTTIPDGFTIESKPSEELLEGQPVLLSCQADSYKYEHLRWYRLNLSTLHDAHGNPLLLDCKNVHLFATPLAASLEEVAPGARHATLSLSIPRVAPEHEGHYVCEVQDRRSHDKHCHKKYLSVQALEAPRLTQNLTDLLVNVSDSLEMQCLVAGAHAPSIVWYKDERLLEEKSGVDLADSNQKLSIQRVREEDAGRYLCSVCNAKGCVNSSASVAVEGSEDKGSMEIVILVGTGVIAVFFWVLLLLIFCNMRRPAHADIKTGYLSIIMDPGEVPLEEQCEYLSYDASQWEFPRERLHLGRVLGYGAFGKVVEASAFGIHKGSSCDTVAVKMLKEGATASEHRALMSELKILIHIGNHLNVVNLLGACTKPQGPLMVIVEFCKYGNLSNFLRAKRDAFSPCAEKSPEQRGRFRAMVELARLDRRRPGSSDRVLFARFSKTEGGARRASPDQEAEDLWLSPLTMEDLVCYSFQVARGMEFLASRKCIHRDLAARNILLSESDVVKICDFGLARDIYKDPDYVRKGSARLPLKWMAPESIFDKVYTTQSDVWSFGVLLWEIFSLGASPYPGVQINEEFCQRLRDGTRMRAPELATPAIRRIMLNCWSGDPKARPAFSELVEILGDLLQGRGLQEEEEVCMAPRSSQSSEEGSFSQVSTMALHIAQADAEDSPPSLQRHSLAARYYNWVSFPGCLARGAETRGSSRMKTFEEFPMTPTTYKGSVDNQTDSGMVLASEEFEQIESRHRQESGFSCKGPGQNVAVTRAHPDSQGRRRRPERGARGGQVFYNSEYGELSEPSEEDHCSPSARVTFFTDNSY

Sample 1
Cell line: mouse MPNST tumor cells
Technique: high-content nuclear imaging
Refers to: cell number
Concentration: 10 µM
Time: 12 h
Notes: mean of 2 replicates
Relative to: plate mean
Direction: higher = more cells
Compound	nuclei count
Nc1nonc1C(=Nc1ccc(F)c(Cl)c1)NO	0.896 z-score
CC1(C)[C@@H](OC(=O)CCC(=O)O)CC[C@]2(C)[C@H]3C(=O)C=C4[C@@H]5C[C@@](C)(C(=O)O)CC[C@]5(C)CC[C@@]4(C)[C@]3(C)CC[C@@H]12	0.403 z-score
Cc1ccc(CC2(O)CCN(CCOc3ccc(O)cc3)CC2)cc1	-0.674 z-score
O=C(O)[C@@H]1[C@H](C(=O)O)NCCN1C(=O)c1ccc2c(ccc3ccccc32)c1.O=C(O)[C@H]1NCCN(C(=O)c2ccc3c(ccc4ccccc43)c2)[C@H]1C(=O)O	0.0722 z-score
CCOC(=O)Nc1ccc(NCc2ccc(F)cc2)nc1N	1.4 z-score
CCCCCNC(=N)N/N=C/c1c[nH]c2ccc(OC)cc12	-4.85 z-score
CC(Oc1ccccc1)C(=O)N[C@@H]1C(=O)N2[C@@H]1SC(C)(C)[C@@H]2C(=O)O (stereo partly shown)	0.744 z-score
COc1ccc(S(=O)(=O)Nc2nc(-c3cccc([N+](=O)[O-])c3)cs2)cc1OC	0.501 z-score
CC(=O)NC(CC(=O)O)C(=O)NC(CCC(=O)O)C(=O)O (stereo not shown)	0.144 z-score
COc1ccc(-c2nnc(Nc3nc4c(OC)cccc4s3)o2)cc1	-0.92 z-score

Sample 2
Target: Calcium/calmodulin-dependent protein kinase type II subunit alpha (CAMK2A, Homo sapiens, UniProt Q9UQM7)
Chain of UniProt Q9UQM7 (whole entry, looked up): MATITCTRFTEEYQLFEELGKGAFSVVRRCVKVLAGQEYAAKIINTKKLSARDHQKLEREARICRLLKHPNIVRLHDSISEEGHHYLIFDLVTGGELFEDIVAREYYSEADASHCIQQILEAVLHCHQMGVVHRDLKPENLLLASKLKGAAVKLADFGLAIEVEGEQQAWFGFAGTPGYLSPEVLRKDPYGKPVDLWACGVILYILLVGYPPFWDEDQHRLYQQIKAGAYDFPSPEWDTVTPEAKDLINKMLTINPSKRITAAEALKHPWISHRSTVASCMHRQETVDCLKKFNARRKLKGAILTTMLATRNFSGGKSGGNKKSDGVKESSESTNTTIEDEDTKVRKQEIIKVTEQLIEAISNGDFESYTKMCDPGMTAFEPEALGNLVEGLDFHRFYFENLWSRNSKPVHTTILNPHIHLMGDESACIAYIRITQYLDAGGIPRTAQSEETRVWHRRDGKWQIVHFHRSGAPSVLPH
Read-out: enzyme activity
Action: inhibitor
Concentration: 10 µM
Compound	inhibition
CC(=O)NCCCC(=O)O	22%
COc1ccc([C@@H]2CC(=O)c3c(O)cc(O[C@@H]4O[C@H](CO)[C@@H](O)[C@H](O)[C@H]4O[C@@H]4O[C@@H](C)[C@H](O)[C@@H](O)[C@H]4O)cc3O2)cc1O	0%
O=C1OC[C@H]2OC(O)[C@H](O)[C@@H](O)[C@@H]2OC(=O)c2cc(O)c(O)c(O)c2-c2c(O)c(O)c3oc(=O)c4c(c(O)c(O)c5oc(=O)c2c3c54)-c2c1cc(O)c(O)c2O (mixture of isomers)	-40%
C[C@@H]1CC[C@]2(C(=O)O)CC[C@]3(C)C(=CC[C@@H]4[C@@]5(C)CC[C@H](O)[C@@](C)(CO)[C@@H]5CC[C@]43C)[C@@H]2[C@]1(C)O	-11%
CCCCC1OC(=O)C2=CCCCC21 (stereo not shown)	-8%
CC(C)[C@H](N)C(=O)O	-3%
COc1ccc2c(c1)O[C@H]1c3ccc(O)cc3OC[C@@H]21	5%

Sample 3
Compound: Cc1nc(Nc2ncc(C(=O)Nc3c(C)cccc3Cl)s2)cc(N2CCN(CCO)CC2)n1
Read-out: enzyme activity
Action: inhibitor
Concentration: 0.5 µM
Relative to: control
target	remaining activity [%]
Glycogen synthase kinase-3 alpha (GSK3A, Homo sapiens, UniProt P49840)	103
Ribosomal protein S6 kinase beta-1 (RPS6KB1, Homo sapiens, UniProt P23443)	102
Protein kinase C epsilon type (PRKCE, Homo sapiens, UniProt Q02156)	102
Serine/threonine-protein kinase Sgk1 (SGK1, Homo sapiens, UniProt O00141)	132
Aurora kinase C (AURKC, Homo sapiens, UniProt Q9UQB9)	84.8
Serine/threonine-protein kinase PAK 2 (PAK2, Homo sapiens, UniProt Q13177)	113
Ephrin type-B receptor 2 (EPHB2, Homo sapiens, UniProt P29323)	-0.191
NUAK family SNF1-like kinase 1 (NUAK1, Homo sapiens, UniProt O60285)	110
Beta-adrenergic receptor kinase 1 (GRK2, Homo sapiens, UniProt P25098)	97
Ribosomal protein S6 kinase alpha-1 (RPS6KA1, Homo sapiens, UniProt Q15418)	96.2
Myosin light chain kinase, smooth muscle (MYLK, Homo sapiens, UniProt Q15746)	92.3
Fibroblast growth factor receptor 4 (FGFR4, Homo sapiens, UniProt P22455)	91.1
SRSF protein kinase 3 (SRPK3, Homo sapiens, UniProt Q9UPE1)	102
G protein-coupled receptor kinase 6 (GRK6, Homo sapiens, UniProt P43250)	101
Serine/threonine-protein kinase pim-2 (PIM2, Homo sapiens, UniProt Q9P1W9)	113
Protein kinase C gamma type (PRKCG, Homo sapiens, UniProt P05129)	86.2
Ephrin type-A receptor 7 (EPHA7, Homo sapiens, UniProt Q15375)	94.3

Sample 4
SMILES: C[C@H](c1ccc(F)cc1)N(Cc1cccc(C(=O)O)c1)C(=O)c1cnc2ccccc2c1
Technique: competition with immobilised ligand
Concentration: 1 µM
target	test	remaining binding
Ephrin type-B receptor 3 (EPHB3, Homo sapiens, UniProt P54753)	cell-free assay	100%
Serine/threonine-protein kinase Sgk1 (SGK1, Homo sapiens, UniProt O00141)	cell-free assay	81%
Megakaryocyte-associated tyrosine-protein kinase (MATK, Homo sapiens, UniProt P42679)	cell-free assay	79%
Cyclin-dependent kinase 4 (CDK4, Homo sapiens, UniProt P11802)	cell-free assay	97%
Phosphatidylinositol 4-phosphate 5-kinase type-1 alpha (PIP5K1A, Homo sapiens, UniProt Q99755)	cell-free assay	100%
Receptor-type tyrosine-protein kinase FLT3 (FLT3, Homo sapiens, UniProt P36888, R834Q)	cell-free assay	100%
Insulin-like growth factor 1 receptor (IGF1R, Homo sapiens, UniProt P08069)	cell-free assay	100%
Tyrosine-protein kinase JAK1, JH2 (JAK1, Homo sapiens, UniProt P23458)	cell-free assay	100%
Phosphatidylinositol 4,5-bisphosphate 3-kinase catalytic subunit beta isoform (PIK3CB, Homo sapiens, UniProt P42338)	cell-free assay	100%
Membrane-associated tyrosine- and threonine-specific cdc2-inhibitory kinase (PKMYT1, Homo sapiens, UniProt Q99640)	cell-free assay	68%
Mitogen-activated protein kinase 6 (MAPK6, Homo sapiens, UniProt Q16659)	cell-free assay	100%
Vascular endothelial growth factor receptor 3 (FLT4, Homo sapiens, UniProt P35916)	cell-free assay	95%
Death-associated protein kinase 2 (DAPK2, Homo sapiens, UniProt Q9UIK4)	cell-free assay	88%
Tyrosine-protein kinase Fes/Fps (FES, Homo sapiens, UniProt P07332)	cell-free assay	100%
Leucine-rich repeat serine/threonine-protein kinase 2 (LRRK2, Homo sapiens, UniProt Q5S007, G2019S)	cell-free assay	100%
Casein kinase II subunit alpha (CSNK2A1, Homo sapiens, UniProt P68400)	cell-free assay	100%
Serine/threonine-protein kinase B-raf (BRAF, Homo sapiens, UniProt P15056)	cell-free assay	90%
Cyclin-dependent kinase-like 3 (CDKL3, Homo sapiens, UniProt Q8IVW4)	binding	64%
